Published values of several laboratories.
Protocols differ between the studies behind these lines. Several values in a cell are separate wells, animals, samples, runs or records. Numbers after ± are the reported error.
Chain of UniProt Q9NQU5 (whole entry, looked up): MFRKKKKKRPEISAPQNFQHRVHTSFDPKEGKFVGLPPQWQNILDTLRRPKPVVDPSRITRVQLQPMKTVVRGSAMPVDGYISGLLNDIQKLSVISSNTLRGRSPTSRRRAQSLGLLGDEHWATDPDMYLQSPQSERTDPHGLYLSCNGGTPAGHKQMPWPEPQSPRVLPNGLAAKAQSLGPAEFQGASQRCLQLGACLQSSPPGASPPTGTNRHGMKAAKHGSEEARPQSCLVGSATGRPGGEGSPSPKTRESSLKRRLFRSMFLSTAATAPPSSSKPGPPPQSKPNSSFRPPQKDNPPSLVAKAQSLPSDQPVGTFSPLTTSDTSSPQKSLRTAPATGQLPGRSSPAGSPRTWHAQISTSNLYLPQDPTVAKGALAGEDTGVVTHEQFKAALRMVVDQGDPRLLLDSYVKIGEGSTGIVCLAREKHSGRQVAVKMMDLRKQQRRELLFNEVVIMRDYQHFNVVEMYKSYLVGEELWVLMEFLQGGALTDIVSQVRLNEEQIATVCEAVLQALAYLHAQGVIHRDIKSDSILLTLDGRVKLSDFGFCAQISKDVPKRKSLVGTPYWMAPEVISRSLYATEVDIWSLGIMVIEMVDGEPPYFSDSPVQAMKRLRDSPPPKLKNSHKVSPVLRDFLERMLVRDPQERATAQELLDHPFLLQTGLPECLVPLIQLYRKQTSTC
Chain of UniProt Q9UIK4 (whole entry, looked up): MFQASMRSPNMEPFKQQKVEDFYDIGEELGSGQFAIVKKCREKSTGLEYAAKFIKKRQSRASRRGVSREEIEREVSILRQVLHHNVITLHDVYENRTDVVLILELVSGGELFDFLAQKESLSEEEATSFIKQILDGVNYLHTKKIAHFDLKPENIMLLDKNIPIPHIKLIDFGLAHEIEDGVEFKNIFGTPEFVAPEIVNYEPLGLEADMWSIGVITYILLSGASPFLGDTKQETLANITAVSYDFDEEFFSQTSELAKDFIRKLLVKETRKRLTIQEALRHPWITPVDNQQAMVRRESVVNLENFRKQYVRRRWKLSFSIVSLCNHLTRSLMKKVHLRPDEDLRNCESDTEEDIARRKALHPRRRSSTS

CCCCCCCCCCCCCCCC(=O)N[C@@H](CCC(=O)NCCOCCOCCC(=O)NCCOCCOCCC(=O)NCCCC[C@H](NC(=O)[C@H](CC(=O)O)NC(=O)[C@H](CC(C)C)NC(=O)[C@H](Cc1ccc(O)cc1)NC(=O)[C@H](CCCCN)NC(=O)[C@H](CO)NC(=O)[C@H](Cc1ccc(O)cc1)NC(=O)[C@H](CC(=O)O)NC(=O)[C@H](CO)NC(=O)[C@@H](NC(=O)[C@H](Cc1ccccc1)NC(=O)[C@@H](NC(=O)CNC(=O)[C@H](CCC(N)=O)NC(=O)[C@@H](CO)NC(=O)[C@@H](N)Cc1c[nH]cn1)[C@@H](C)O)[C@@H](C)O)C(=O)N[C@@H](CCCNC(=N)N)C(=O)N[C@@H](CCCNC(=N)N)C(=O)N[C@@H](C)C(=O)N[C@@H](CCC(N)=O)C(=O)N[C@@H](CC(=O)O)C(=O)N[C@@H](Cc1ccccc1)C(=O)N[C@H](C(=O)N[C@@H](CCC(N)=O)C(=O)N[C@@H](Cc1c[nH]c2ccccc12)C(=O)N[C@@H](CC(C)C)C(=O)N[C@@H](CC(C)C)C(=O)N[C@@H](CC(N)=O)C(=O)N[C@H](C(=O)NCC(=O)NCC(=O)N1CCC[C@H]1C(=O)N[C@@H](CO)C(=O)N[C@@H](CO)C(=O)NCC(=O)N[C@@H](C)C(=O)N1CCC[C@H]1C(=O)N1CCC[C@H]1C(=O)N1CCC[C@H]1C(=O)N[C@@H](CO)C(N)=O)[C@@H](C)O)C(C)C)C(=O)O
Tmax (rhesus monkey, female; subcutaneous, 20 µg/kg, day 1, median): 1 h

CC(=O)NCCCC[C@@H]1NC(=O)[C@H](Cc2c[nH]c3c(C)cccc23)NC(=O)[C@H]([C@@H](C)O)NC(=O)[C@H](CC(N)=O)NC(=O)[C@@H](NC(C)=O)C(C)(C)SSC(C)(C)[C@@H](C(=O)N[C@@H](Cc2ccc(OCCN)cc2)C(=O)N[C@@H](Cc2ccc3ccccc3c2)C(=O)NC2(C(=O)N[C@@H](CCC(=O)O)C(=O)N[C@@H](CC(N)=O)C(=O)N[C@@H](Cc3cccnc3)C(=O)N(C)CC(N)=O)CCOCC2)NC1=O
blood to plasma ratio (dog, blood; 0.0013 µM, 2 h): 0.61 ± 0.09

CS(C)(=O)=Nc1ccc(-c2ccc(-c3nc4cc(O[C@@H]5CO[C@H]6[C@@H]5OC[C@H]6O)[nH]c4cc3F)cc2)cc1
inhibition (PAK6 (Homo sapiens, UniProt Q9NQU5); enzyme activity, inhibitor; 10 µM): 0%

CC[C@H](C)[C@H](NC(=O)[C@H](CCCCN)NC(=O)CNC(=O)[C@H](CC(C)C)NC(=O)[C@H](Cc1ccccc1)NC(=O)[C@H](CCCCN)NC(=O)[C@H](CO)NC(=O)[C@H](Cc1ccccc1)NC(=O)[C@H](Cc1c[nH]c2ccccc12)NC(=O)[C@H](CCC(N)=O)NC(=O)[C@@H](NC(=O)[C@H](Cc1ccccc1)NC(=O)CCCCCNC(=O)CN1CCN(CC(=O)O)CCN(CC(=O)O)CCN(CC(=O)O)CC1)C(C)C)C(=O)N[C@@H](CCC(=O)O)C(=O)N1CCC[C@H]1C(=O)N[C@H](CC(=O)O)C(=O)N[C@H](C(=O)N[C@@H](CO)C(=O)N[C@@H](CCC(N)=O)C(=O)N[C@H](C(=O)N[C@@H](CCC(N)=O)C(=O)N[C@@H](CC(=O)O)C(=O)N1CCC[C@H]1C(=O)N[C@@H](CC(N)=O)C(=O)N[C@@H](CC(=O)O)C(=O)N[C@@H](CCC(N)=O)C(=O)N[C@@H](Cc1ccc(O)cc1)C(=O)N[C@@H](CCC(=O)O)C(=O)N1CCC[C@H]1C(=O)N[C@@H](Cc1ccccc1)C(=O)O)C(C)C)C(C)C [copper-64 labelled]
tissue uptake (C57BL/6 mice, male, MC-38 tumour-bearing, spleen; 2 h, vehicle-treated): 1.06 ± 0.1 %ID/g

CC(C)Oc1c(NC(=O)c2ccc(NC(=O)[C@H](CC(N)=O)NC(=O)c3ccc(/N=N/c4ccccc4)cc3)cc2)ccc(C(=O)Nc2ccc(C(=O)O)cc2)c1O
thermal relaxation half-life (absorbance kinetics; 45 °C, photostationary to ground state): 4 h

CC(C)(C)C(=O)OCOP(=O)(OCOC(=O)C(C)(C)C)C1CCCN(O)C1=O (stereo not drawn)
log LC50 (UACC-62): > -4 log M

CC1(C)C(=O)N(c2ccc(C#N)c(C(F)(F)F)c2)C(=S)N1c1ccc(C(=O)O)c(F)c1
AUC (male human, plasma; oral, 80 mg, single dose, fasted): 25000 ng·h/mL

N=C(N)NCCC[C@@H](NC(=O)[C@H](N)Cc1c[nH]c2ccccc12)C(=O)N[C@H](CCCCN)C(=O)N[C@H](Cc1c[nH]c2ccccc12)C(=O)N[C@H](CCCNC(=N)N)C(=O)N[C@H](CCCCN)C(=O)N[C@H](Cc1c[nH]c2ccccc12)C(=O)N[C@H](CCCNC(=N)N)C(=O)N[C@H](CCCCN)C(=O)N[C@H](Cc1c[nH]c2ccccc12)C(=O)N[C@H](CCCNC(=N)N)C(=O)N[C@H](CCCCN)C(N)=O
survival (mouse; intraperitoneal, 20 mg/kg single dose, day 5): 100%

COc1cnc2cccc(N3CCc4c(cc(Cn5ccnc5)cc4-c4cn(C)nc4C(F)(F)F)C3=O)c2c1
body weight (BALB/c nude mice, MV4-11 xenograft; intraperitoneal, 100 mg/kg, day 28): 25.6 g and 22.4 g and 22.1 g and 22.2 g and 24.8 g

COc1ccccc1-c1n[nH]c2nc(NC3CCN(C(=O)Cc4ccc(F)cc4F)CC3)ncc12
relative abundance (bead binding, competition bead pull-down, measured: LINJ.30.0120; Leishmania donovani extract; 10 µM; reference: vehicle): 1.25

CSCC[C@H](NC(=O)CNC(=O)[C@H](CCCCN)NC(=O)[C@H](CC(C)C)NC(=O)[C@@H]1CCCN1C(=O)[C@H](CO)NC(=O)[C@H](Cc1c[nH]cn1)NC(=O)[C@H](Cc1c[nH]c2ccccc12)NC(=O)[C@H](CCCNC(=N)N)NC(=O)[C@H](CC(C)C)NC(=O)[C@H](CCCNC(=N)N)NC(=O)[C@H](Cc1c[nH]c2ccccc12)NC(=O)[C@H](CS)NC(=O)CCCCCNC(=O)CN1CCN(CC(=O)O)CCN(CC(=O)O)CCN(CC(=O)O)CC1)C(=O)O [copper-64 labelled]
tissue uptake (PET; C57BL/6J mice, B16-F10 tumour, kidney; intravenous, 18 h): 4.45 ± 0.58 %ID/g

COCC1CN(C2CCN(c3cc(OC)c(Nc4ncc(Br)c(Nc5ccc6c(c5P(C)(C)=O)OCCO6)n4)cc3C)CC2)C1
treatment-related deaths (human patients; oral, 240 mg once daily): 0%

O=C1NC2(CC2)COc2ncc(F)cc2[C@H]2COCCN2c2ccn3ncc1c3n2
serum urea (Sprague-Dawley rat, male, serum; oral, 2.5 mg/kg/day, end of treatment, 4-week subacute toxicity): 4.14 ± 0.84 mmol/L

Cc1nc2cccc(OCC(C)(C)C(=O)NC(C)C)c2c(N)c1C(=O)[O-].[Na+]
revertant colonies per plate (Salmonella typhimurium; TA1537; 2.0 mg per plate, without S9, plate incorporation): 11 ± 4

N#[11C]c1ccc(-c2csc(NN=C3CCCC3)n2)cc1
radioactivity uptake (C57BL/6 mice, male, thymus; intravenous, 3 MBq, 1 min): 2.65 ± 0.53 %ID/g

O=C1NC(=O)c2c1c1cc(F)c[n+]3c1c1c2c2cc(O)ccc2[n]1[Ru-4]312([N]=C=S)[S+]3CC[S+]1CC[S+]2CC3 (stereo not drawn)
remaining activity (DAPK2 (Homo sapiens, UniProt Q9UIK4); enzyme activity; 100 nM, human enzyme, with: 10 µM ATP; reference: untreated): 2%

Cc1ccccc1-c1ccc(-c2nc(-c3ccc(CN(C)CCCC(=O)O)c([18F])c3)no2)cc1C(F)(F)F
tracer uptake (rat, bone; 5 min): 0.3 %ID/g

COc1ccccc1-c1n[nH]c2nc(N[C@H]3CC[C@H](NS(=O)(=O)CC(C)C)CC3)ncc12
relative abundance (bead binding, competition bead pull-down, measured: LMJF.35.0980; Leishmania donovani extract; 10 µM; reference: vehicle): 0.98
